Measured values pooled from the literature.
Compare with care: the assays were run in different laboratories.
Organism: Klebsiella pneumoniae

| SMILES | assay | system | conditions | MIC |
| --- | --- | --- | --- | --- |
| CC[C@H](C)[C@H](NC(=O)[C@H](CCCCN)NC(=O)[C@H](CCCNC(=N)N)NC(=O)[C@H](Cc1c[nH]c2ccccc12)NC(=O)[C@@H](NC(=O)[C@H](CC(N)=O)NC(=O)[C@H](CCCNC(=N)N)NC(=O)[C@@H](NC(=O)[C@H](CCCNC(=N)N)NC(=O)[C@H](CC(N)=O)NC(=O)[C@H](CCCNC(=N)N)NC(=O)[C@H](CC(C)C)NC(=O)[C@H](CCCNC(=N)N)NC(=O)[C@H](CCCNC(=N)N)NC(=O)[C@H](Cc1ccccc1)NC(=O)[C@H](CCCNC(=N)N)NC(=O)CN)[C@@H](C)CC)[C@@H](C)CC)C(=O)NCC(=O)N1CCC[C@H]1C(=O)N[C@H](C(=O)N[C@@H](C)C(=O)NCC(=O)N1CCC[C@H]1C(=O)N[C@@H](CC(C)C)C(=O)N[C@H](C(=O)N[C@@H](CO)C(=O)N[C@@H](CCCNC(=N)N)C(=O)N[C@@H](Cc1ccccc1)C(=O)NCC(=O)O)[C@@H](C)CC)[C@@H](C)CC | CLSI agar dilution | ATCC 13883 | 20 h, 37 °C | 16 µg/mL |
| CCn1c(-c2ccc(F)cc2)c(-c2ccc(F)cc2)n(Cc2ccccc2)c1=[Se] | broth microdilution | carbapenem-resistant BAA-1705 | 24 h | > 40 µM |
| CN[C@@H]1[C@H](O)[C@H](NC)[C@H]2O[C@]3(O)[C@H](O[C@@H]2[C@H]1O)O[C@H](C)C[C@H]3NC(=O)Cc1ccccn1 | microbial growth, broth dilution | ATCC33495 | – | > 200 µg/mL |
| CCCCCCCC(=O)N[C@@H](CCN)C(=O)N[C@H](C(=O)N[C@@H](CCN)C(=O)N[C@H]1CCNC(=O)[C@H]([C@@H](C)O)NC(=O)[C@H](CCN)NC(=O)[C@H](CCN)NC(=O)[C@H](Cc2ccc(Cl)cc2)NC(=O)[C@@H](CC(C)C)NC(=O)[C@H](CCN)NC1=O)[C@@H](C)O | broth microdilution | ATCC 13883, colistin-susceptible | – | 4 to 8 µg/mL |
| CC1(C)[C@H](NC(=O)/C(=N\OCCN)c2nsc(N)n2)C(=O)N1OS(=O)(=O)O | agar dilution | 2146, NDM-1 | – | > 64 µg/mL |
| C#CCOc1ccc(CN[C@@]2(C)C[C@H](O[C@H]3[C@H](Oc4c5cc6cc4Oc4ccc(cc4Cl)[C@@H](O)[C@@H](NC(=O)[C@@H](CC(C)C)NC)C(=O)N[C@@H](CC(N)=O)C(=O)N[C@H]6C(=O)N[C@H]4C(=O)N[C@H](C(=O)N[C@H](C(=O)NCC(N)=O)c6cc(O)cc(O)c6-c6cc4ccc6O)[C@H](O)c4ccc(c(Cl)c4)O5)O[C@H](CO)[C@@H](O)[C@@H]3O)O[C@@H](C)[C@H]2O)cc1OC | broth microdilution | ATCC 27736, cation-adjusted Mueller-Hinton broth | 18 to 20 h, 37 °C, 0.002% polysorbate 80 | > 128 µg/mL |
| COc1ccc2ccc(O)c(/C=N/[C@H]3CCCC[C@H]3/N=C/c3cc(C)ccc3O)c2c1 | bacterial growth, broth microdilution | carbapenem-resistant | – | > 40 µM |
| CCCCCCCC(=O)N[C@@H](CCN)C(=O)N[C@H](C(=O)N[C@@H](CCN)C(=O)N[C@H]1CCNC(=O)[C@H]([C@@H](C)O)NC(=O)[C@H](CCN)NC(=O)[C@H](CCN)NC(=O)[C@H](CCc2ccccc2)NC(=O)[C@@H](CC(C)C)NC(=O)[C@H](CCN)NC1=O)[C@@H](C)O | broth microdilution | ATCC 19606 | – | < 0.125 µg/mL |
| COc1ccc(/C=N/[C@@H]2CCCC[C@@H]2/N=C/c2c(O)ccc3ccc(OC)cc23)c(O)c1 | bacterial growth, broth microdilution | carbapenem-resistant | – | > 40 µM |
| CCCCCCCCCCCCCCCCCCn1cc(CN(CCC(=O)NCCN(CCC(=O)NCCN(CCC(=O)NCCN(C)C)CCC(=O)NCCN(C)C)CCC(=O)NCCN(CCC(=O)NCCN(C)C)CCC(=O)NCCN(C)C)CCC(=O)NCCN(CCC(=O)NCCN(CCC(=O)NCCN(C)C)CCC(=O)NCCN(C)C)CCC(=O)NCCN(CCC(=O)NCCN(C)C)CCC(=O)NCCN(C)C)nn1 | – | ATCC BAA-1705 KPC, LB broth | 18 h | > 96 µg/mL |
| CC1(C)[C@H](NC(=O)/C(=N\OCc2c(Cl)cccc2Cl)c2nsc(N)n2)C(=O)N1OS(=O)(=O)O | agar dilution | 2146, NDM-1 | – | > 64 µg/mL |
| CCCCCCCC(=O)N[C@@H](CCN)C(=O)N[C@H](C(=O)N[C@@H](CCN)C(=O)N[C@H]1CCNC(=O)[C@H]([C@@H](C)O)NC(=O)[C@H](CCN)NC(=O)[C@H](CCN)NC(=O)[C@H](Cc2ccc(Br)cc2)NC(=O)[C@@H](CC(C)C)NC(=O)[C@H](CCN)NC1=O)[C@@H](C)O | broth microdilution | ATCC 13883, colistin-susceptible | – | 4 to 8 µg/mL |
| N=C(N)NCCC[C@@H]1NC(=O)[C@H](CCCNC(=N)N)NC(=O)[C@@H](CCCNC(=N)N)NC(=O)[C@@H](CCCNC(=N)N)NC(=O)[C@@H](C(c2ccccc2)c2ccccc2)NC(=O)[C@H](Cc2c[nH]c3ccccc23)NC(=O)[C@@H](C(c2ccccc2)c2ccccc2)NC1=O | – | ATCC BAA1705, KPC-2 carbapenem-resistant | – | > 64 µg/mL |
| CC[C@H](C)[C@H](NC(=O)[C@@H](CCCNC(=N)N)NC(=O)[C@H](CCCNC(=N)N)NC(=O)[C@@H]1CCCN1C(=O)[C@@H]1CCCN1C(=O)[C@H](CCCNC(=N)N)NC(=O)[C@@H]1CCCN1C(=O)[C@H](CCCNC(=N)N)NC(=O)[C@@H]1CCCN1C(=O)[C@@H](NC(=O)[C@H](Cc1ccc(O)cc1)NC(=O)[C@@H]1CCCN1C(=O)[C@@H]1CCCN1C(=O)[C@H](CCCCN)NC(=O)[C@H](CC(=O)O)NC(=O)[C@@H](N)C(C)C)C(C)(C)C)C(=O)N[C@@H](Cc1ccc(O)cc1)C(=O)N[C@@H](CC(N)=O)C(=O)N[C@H](CCCNC(=N)N)C(N)=O | broth microdilution | DSM 681 | 18 h, 37 °C, 25% MHB2 | 4 µg/mL |
| COc1ccc2ccc(O)c(/C=N/[C@H]3CCCC[C@H]3/N=C/c3cccc(C)c3O)c2c1 | bacterial growth, broth microdilution | carbapenem-resistant | – | > 40 µM |
| CC[C@H](C)[C@H](NC(=O)[C@@H](CCCNC(=N)N)NC(=O)[C@H](CCCNC(=N)N)NC(=O)[C@@H]1CCCN1C(=O)[C@@H]1CCCN1C(=O)[C@H](CCCNC(=N)N)NC(=O)[C@@H]1CCCN1C(=O)[C@H](CCCNC(=N)N)NC(=O)[C@@H]1CCCN1C(=O)[C@H](CC(C)C)NC(=O)[C@H](Cc1cc(I)c(O)c(I)c1)NC(=O)[C@@H]1CCCN1C(=O)[C@@H]1CCCN1C(=O)[C@H](CCCCN)NC(=O)[C@H](CC(=O)O)NC(=O)[C@@H](N)C(C)C)C(=O)N[C@@H](Cc1ccc(O)cc1)C(=O)N[C@@H](CC(N)=O)C(=O)N[C@H](CCCNC(=N)N)C(N)=O | broth microdilution | DSM 681 | 18 h, 37 °C, 25% MHB2 | > 128 µg/mL |
| CC[C@H](C)[C@H](NC(=O)[C@H](CCCCN)NC(=O)[C@H](Cc1c[nH]c2ccccc12)NC(=O)[C@H](Cc1c[nH]c2ccccc12)NC(=O)[C@H](CCCCN)NC(=O)[C@H](CCCCN)NC(=O)[C@H](CCCCN)NC(=O)[C@H](Cc1c[nH]c2ccccc12)NC(=O)[C@H](CCCCN)NC(=O)[C@H](CCCCN)NC(=O)[C@H](Cc1c[nH]c2ccccc12)NC(=O)[C@H](CCCCN)NC(=O)[C@H](CCCCN)NC(=O)[C@@H](NC(=O)[C@@H](NC(=O)[C@H](CCCCN)NC(=O)[C@@H](N)CCCNC(=N)N)[C@@H](C)CC)[C@@H](C)CC)C(=O)N[C@@H](Cc1c[nH]c2ccccc12)C(=O)N[C@@H](Cc1c[nH]c2ccccc12)C(=O)N[C@@H](CCCCN)C(N)=O | broth microdilution | 10145 | – | 1.25 µg/mL |
| CC1(C)[C@H](NC(=O)/C(=N\OC2(C(=O)O)CC2)c2nsc(N)n2)C(=O)N1OS(=O)(=O)O | agar dilution | 09-20, NDM-1 | – | 2 µg/mL |
| CC[C@H](C)[C@H](NC(=O)[C@@H](CCCNC(=N)N)NC(=O)[C@H](CCCNC(=N)N)NC(=O)[C@@H]1CCCN1C(=O)[C@@H]1CCCN1C(=O)[C@H](CCCNC(=N)N)NC(=O)[C@@H]1CCCN1C(=O)[C@H](CCCNC(=N)N)NC(=O)[C@@H]1CCCN1C(=O)[C@H](CC(C)C)NC(=O)[C@H](Cc1ccc(O)cc1)NC(=O)[C@@H]1CCCN1C(=O)[C@H](Cc1ccccc1)NC(=O)[C@H](CCCCN)NC(=O)[C@H](CC(=O)O)NC(=O)[C@@H](N)C(C)C)C(=O)N[C@@H](Cc1ccc(O)cc1)C(=O)N[C@@H](CC(N)=O)C(=O)N[C@H](CCCNC(=N)N)C(N)=O | broth microdilution | DSM 681 | 18 h, 37 °C, 25% MHB2 | 16 µg/mL |
| C#CCO/N=C(\C(=O)N[C@@H]1C(=O)N(OS(=O)(=O)O)C1(C)C)c1csc(N)n1 | agar dilution | 09-20, NDM-1 | – | 1 µg/mL |
| CC[C@H](C)[C@H](NC(=O)[C@H](C)NC(=O)[C@@H](NC(=O)[C@H](CC(=O)O)NC(=O)[C@H](CCCCN)NC(=O)[C@H](CO)NC(=O)[C@@H](NC(=O)[C@H](CC(N)=O)NC(=O)[C@H](C)NC(=O)[C@@H](NC(=O)[C@H](CCC(=O)O)NC(=O)[C@H](CCCCN)NC(=O)[C@@H](NC(=O)[C@@H](NC(=O)[C@H](Cc1c[nH]cn1)NC(=O)[C@H](CCCCN)NC(=O)[C@@H](NC(=O)[C@H](CCCCN)NC(=O)[C@H](CCCCN)NC(=O)[C@@H](NC(=O)[C@H](CC(C)C)NC(=O)[C@H](CCCCN)NC(=O)[C@H](CC(N)=O)NC(=O)[C@H](Cc1ccccc1)NC(=O)[C@H](CCCNC(=N)N)NC(=O)[C@H](CCCCN)NC(=O)[C@H](CCCNC(=N)N)NC(=O)[C@H](Cc1ccccc1)NC(=O)CN)C(C)C)C(C)C)[C@@H](C)O)[C@@H](C)CC)[C@@H](C)O)C(C)C)C(C)C)C(=O)N[C@H](C(=O)N[C@@H](C)C(=O)NCC(=O)N[C@@H](CO)C(=O)NCC(=O)N[C@H](C(=O)N[C@@H](C)C(=O)N[C@H](C(=O)NCC(=O)N[C@@H](C)C(=O)N[C@@H](C)C(=O)N[C@@H](CCSC)C(N)=O)C(C)C)C(C)C)C(C)C | – | DSM 30104, CAMHB with 10% mouse serum | – | 0.063 µg/mL |
| CC[C@H](C)[C@H](NC(=O)[C@@H](CCCNC(=N)N)NC(=O)[C@H](CCCNC(=N)N)NC(=O)[C@H](Cc1c[nH]cn1)NC(=O)[C@H](Cc1c[nH]c2ccccc12)NC(=O)[C@H](CCCNC(=N)N)NC(=O)[C@@H]1CCCN1C(=O)[C@H](CCCNC(=N)N)NC(=O)[C@@H]1CCCN1C(=O)[C@H](CC(C)C)NC(=O)[C@H](Cc1ccc(O)cc1)NC(=O)[C@@H]1CCCN1C(=O)[C@@H]1CCCN1C(=O)[C@H](CCCCN)NC(=O)[C@H](CC(=O)O)NC(=O)[C@@H](N)C(C)C)C(=O)N[C@@H](Cc1ccc(O)cc1)C(=O)N[C@@H](CC(N)=O)C(=O)N[C@H](CCCNC(=N)N)C(N)=O | broth microdilution | DSM 681 | 18 h, 37 °C, 25% MHB2 | 2 µg/mL |
| C=CCO/N=C(\C(=O)N[C@@H]1C(=O)N(OS(=O)(=O)O)C1(C)C)c1nsc(N)n1 | agar dilution | 2146, NDM-1 | – | 64 µg/mL |

A few entries again:
| SMILES | assay | system | conditions | MIC |
| --- | --- | --- | --- | --- |
| C=CCO/N=C(\C(=O)N[C@@H]1C(=O)N(OS(=O)(=O)O)C1(C)C)c1nsc(N)n1 | agar dilution | 2146, NDM-1 | – | 64 µg/mL |
| CCn1c(-c2ccc(F)cc2)c(-c2ccc(F)cc2)n(Cc2ccccc2)c1=[Se] | broth microdilution | carbapenem-resistant BAA-1705 | 24 h | > 40 µM |
